# Measurements gathered from unrelated publications.
# Each numbered part is a random draw from the data of one study; scales do not carry over between parts.
# Chain of UniProt P11388 (whole entry, looked up): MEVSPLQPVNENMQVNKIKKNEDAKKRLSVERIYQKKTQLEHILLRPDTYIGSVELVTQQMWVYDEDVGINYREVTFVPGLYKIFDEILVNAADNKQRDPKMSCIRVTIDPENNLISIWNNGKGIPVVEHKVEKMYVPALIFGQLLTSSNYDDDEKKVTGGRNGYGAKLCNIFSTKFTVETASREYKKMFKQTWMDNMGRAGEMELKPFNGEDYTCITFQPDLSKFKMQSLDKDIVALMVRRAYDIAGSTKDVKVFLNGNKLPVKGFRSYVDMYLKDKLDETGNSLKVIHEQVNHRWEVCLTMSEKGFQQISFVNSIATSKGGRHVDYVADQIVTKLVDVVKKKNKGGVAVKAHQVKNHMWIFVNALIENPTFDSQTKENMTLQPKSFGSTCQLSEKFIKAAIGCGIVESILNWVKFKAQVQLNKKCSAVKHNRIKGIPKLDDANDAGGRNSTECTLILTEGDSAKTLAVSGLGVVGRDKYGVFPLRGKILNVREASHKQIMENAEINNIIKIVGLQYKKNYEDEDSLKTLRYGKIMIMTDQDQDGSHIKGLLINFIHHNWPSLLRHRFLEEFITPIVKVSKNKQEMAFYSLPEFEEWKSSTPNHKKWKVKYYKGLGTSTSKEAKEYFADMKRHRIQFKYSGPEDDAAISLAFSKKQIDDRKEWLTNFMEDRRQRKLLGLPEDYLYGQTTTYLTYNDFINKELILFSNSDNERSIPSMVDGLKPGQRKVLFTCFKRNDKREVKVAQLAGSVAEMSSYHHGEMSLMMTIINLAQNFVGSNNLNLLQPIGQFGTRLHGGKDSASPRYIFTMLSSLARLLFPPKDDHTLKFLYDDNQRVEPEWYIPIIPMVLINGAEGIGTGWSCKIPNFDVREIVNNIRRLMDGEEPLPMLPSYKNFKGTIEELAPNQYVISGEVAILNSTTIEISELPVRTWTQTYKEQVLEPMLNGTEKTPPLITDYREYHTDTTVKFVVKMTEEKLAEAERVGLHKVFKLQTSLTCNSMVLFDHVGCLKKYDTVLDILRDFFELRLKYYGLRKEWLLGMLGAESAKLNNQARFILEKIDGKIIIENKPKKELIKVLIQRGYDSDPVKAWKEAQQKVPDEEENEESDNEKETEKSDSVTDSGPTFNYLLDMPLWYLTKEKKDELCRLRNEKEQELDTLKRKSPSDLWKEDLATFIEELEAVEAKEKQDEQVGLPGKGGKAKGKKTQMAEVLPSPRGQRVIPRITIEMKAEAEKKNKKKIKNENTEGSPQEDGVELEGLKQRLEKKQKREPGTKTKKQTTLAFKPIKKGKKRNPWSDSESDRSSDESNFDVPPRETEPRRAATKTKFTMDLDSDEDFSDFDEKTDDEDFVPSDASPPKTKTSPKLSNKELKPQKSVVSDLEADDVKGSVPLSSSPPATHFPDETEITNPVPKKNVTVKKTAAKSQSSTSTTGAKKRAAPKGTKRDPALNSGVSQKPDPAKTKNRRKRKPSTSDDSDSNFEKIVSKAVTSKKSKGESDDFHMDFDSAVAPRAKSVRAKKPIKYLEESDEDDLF

# Study 1
# Structure (SMILES): Fc1ccccc1Cc1nc(-c2nc(C(F)(F)F)n[nH]2)cn2ccnc12
# Host: healthy volunteers
# Notes: single ascending dose, unit not given
# Relative to: placebo
conditions,delayed maze test moves
0.3 mg,3
1 mg,-0.8
30 mg,-0.8
3 mg,-1.1

# Mixed results
SMILES,tested on,assay,test system,conditions,how to read,measurement,value
COC(=O)Nc1c(N)nc(-c2nn(Cc3ccccc3F)c3ncc(F)cc23)nc1N,,,"healthy male humans, plasma","oral, 1.25 mg single dose, phase I DDI study, alone",,AUC,0.774 µg·h/mL
CC1COc2ccccc2N1C(=O)C(Cl)Cl (centres unmarked),cytosolic glutathione S-transferase,substrate depletion,"rhesus monkey, female, liver cytosol","5 µM, pH 7.4, together with: glutathione",,intrinsic clearance,1400 µL/min/mg
N#CCC1CCN(c2nc(Nc3ccc(N4CCC(O)CC4)cc3)c3c(=O)[nH]ncc3n2)CC1,,"vs placebo, Olink multiplex","human, serum","40 mg, day 29, unit not given",relative to: placebo,IL-18 level difference,-1.54
COc1cc([C@@H]2c3cc4c(cc3[C@@H](O[C@@H]3O[C@@H]5CO[C@@H](C)O[C@H]5[C@H](O)[C@H]3O)[C@H]3COC(=O)[C@H]23)OCO4)cc(OC)c1O,"TOP2A (Homo sapiens, UniProt P11388)","DNA decatenation, inhibitor, gel-based decatenation",,31.25 µM,,inhibition,31.8%

# A few entries again (study 1):
conditions,delayed maze test moves
3 mg,-1.1
